Published values collected from several papers.
A part holds a random share of what one study measured.

Series 1
Target: Interferon regulatory factor 7, full length, phosphomimetic (IRF7, Homo sapiens, UniProt Q92985, residues 1-503, S471D/S472D/S475D/S476D/S477D/S483D/S484D/S487D)
Chain of UniProt Q92985 (whole entry, unmodified, looked up): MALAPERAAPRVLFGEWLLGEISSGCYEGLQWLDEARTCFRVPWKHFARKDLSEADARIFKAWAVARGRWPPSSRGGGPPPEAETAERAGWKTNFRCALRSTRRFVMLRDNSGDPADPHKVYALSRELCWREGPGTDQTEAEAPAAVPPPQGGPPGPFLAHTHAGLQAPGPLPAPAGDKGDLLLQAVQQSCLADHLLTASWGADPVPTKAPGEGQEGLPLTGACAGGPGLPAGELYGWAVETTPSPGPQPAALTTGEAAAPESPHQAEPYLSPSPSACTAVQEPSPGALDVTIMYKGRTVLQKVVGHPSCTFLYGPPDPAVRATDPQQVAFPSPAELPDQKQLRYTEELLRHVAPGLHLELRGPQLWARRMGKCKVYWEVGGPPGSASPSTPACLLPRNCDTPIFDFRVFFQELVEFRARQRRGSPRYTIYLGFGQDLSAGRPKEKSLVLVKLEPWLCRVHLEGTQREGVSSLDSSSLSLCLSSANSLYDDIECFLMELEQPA
Method: protein-binding microarray
Molecule type: double-stranded DNA, one strand shown
Medium: in vitro
Tested at: 2200 nM top
Notes: 60-bp whole probe
With: salmon DNA 0.4 mg/ml
Relative to: random background probes
Reading: higher = stronger binding
All sequences stand within: GCCTAGCAC … GTCTTGATTCGCTTGACGCTGCTG
Sequence | fitted relative affinity [z-score]
TCAGGTTGAACATGAACACTGTGCTAG | 0.219
TTCATTATTGTTTCCTTCCTGTGCTAG | 2.64
AGGGCGGCTGAGTCAGCACAGTGCTAG | -1.26
GACGGTTTCCTCTCCCTGACGTGCTAG | 2.34
GACGATATCGGCTTTCGAGACGTGCTA | 1.47
AGTCTCTTCTGGGACTCATGGTGCTAG | 0.141
GACGATTTCAGACTGGCGACGTGCTAG | 0.433
GACGATATCGGGTATCGAGACGTGCTA | 0.0936
AAGATTCTAGCCTATAGAAGCGTGCTA | -0.44

Series 2
Target: RNA binding protein fox-1 homolog 2, RRM domain, GST-SBP tag (RBFOX2, Homo sapiens, UniProt O43251-10, residues 100-194)
Method: RNA Bind-n-Seq
Molecule type: RNA
Medium: in vitro
Tested at: 365 nM
Notes: natural RNA segment, single round, ends assumed
Relative to: no-protein control
Reading: higher = stronger binding
All sequences stand within: GGGAGUUCUACAGUCCGACGAUC … UGGAAUUCUCGGGUGCCAA
Target sequence (chain): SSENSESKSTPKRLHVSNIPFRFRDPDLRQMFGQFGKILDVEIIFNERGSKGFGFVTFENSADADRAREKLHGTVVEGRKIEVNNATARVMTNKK
Sequence | RBNS enrichment (R)
ACAGAUAUGCUGACUAACAGAGAUUGCCAUUAUGAUUUAUAACAAUAUCAAAUGUAUAGUUAUGAACUAGUUAUGAAAUAAUCUUAUGGUUGAGGGUCACCACAACAUGA | 0.326
CCAGUGGGUCUGGGAUAUGGCUGCCCAGGAGACAGACCACUUGCCACGCUGUUGUAAAAACCCAAGUCCCUGUCAUUUGAACCUGGAUCCAGCACUGGUGAACUGAGCUG | 0.596
UCACCAGUGAGUUAGCAGCACGUGUUCCCGACAUAACAUUGUACUGUAAUGGAGUGAGCGUAGCAGCUCAGCUCUUUGGAUCAGUCUUUGUGAUUUCAUAGCGAGUUUUC | 0.446
CCGAGGCUGCUCCCCUGGAGCGGCGCCCCUGCGCCCUCAGCCCGAGCAGCGACAUCCACUCGCCAUUUGCUGACAUGAGAUUGGGAGGAAGAAUCCAGAGGUGAAGAGGG | 0.881
CCACCGGGCGCAUGCCUCCCAGGCCACCUCAGUCUCACCUGCCGGCUCUGGGCUGGCUGCUCCUAACCUACCUCGCCGAGCUGUCGGAGGGCUGGACAUUUGUGGCAGUG | 5.81
UGUGCAUUAAGAAAUUUAAGUUUGGGGCUGGAGAAAUGGCCCAUCGAUUAAGAAAGAGCACUGGUGGCUGCUUUUCCAGAGAUCCUGAGUUCAAUUCCCAGCAACCACAU | 1.21

Series 3
Target: Fragile X messenger ribonucleoprotein 1, C-terminal low-complexity region (Fmr1, Mus musculus, UniProt P35922)
Method: RNA Bind-n-Seq
Molecule type: RNA
Medium: in vitro
Tested at: 200 nM
Notes: whole 134-nt RNA, ends assumed
With: 150 mM LiCl
Relative to: input library
Reading: higher = stronger binding
Each molecule: 7-deaza-guanosine replaces G
All sequences stand within: GGGAGUUCUACAGUCCGACGAUC … UGGAAUUCUCGGGUGUCAAGG
Sequence | log2 enrichment
CACAGACAACACGCACCCACACAGCCACAGAGGGAAGGGGUUGGGAUGGGGACAGGGUGCACAGCAGGGCGGGGUAGGACCCCAGCCCCU | 0.317
CUGUGCUACACAUCGUAUGUACCGAAUCGGCCCCCCCGGCCCCCCCGGGGCCCCCCCGGGGAAAGUAUUAUGUUACGCCGUUCGGAUCUG | 0.284
UGGGAGGUGGAUUUUGUUUAUUUUUUUAGCUCAUUUACAGGGGUGGGAAUUUUUUUUUAAUAUGUGUCAUGAAUAAAGUUGUUUUUGAAA | 1.28
CAAGUCCUGUGCUACACAUCGUAUGUACCGAAUCGGGGUGGGGUGGGGAAAGGGGAAAGUAUUAUGUUACGCCGUUCGGAUCUGCACUUC | -0.757
UGGGAGGUCGAUUUUGUUUAUUUUUUUAGCUCAUUUCCAGGGGUGGGAAUUUUUUUUUAAUAUGUGUCAUGAAUAAAGUUGUUUUUGAAA | 0.925
UGGGAGGUGGAUUUUGUUUAUUUUUUUAGCUCCUUUCCAGGGGUGGGAAUUUUUUUUUAAUAUGUGUCAUGAAUAAAGUUGUUUUUGAAA | 0.346

Further values, each from its own experiment
Molecule | target | assay | system | conditions | how to read | endpoint | result
PhoQ, residues 284 288 289 292 302 303 GTAMQF | PhoP, residues 12 14 15 18 19 GHCSL (Escherichia coli, UniProt P23836) | Sort-seq, measured: YFP reporter | E. coli | PhoQ-PhoP variant library, with: 10 µM Mg2+ | relative to: high Mg2+ state, higher = stronger signaling | fold induction | 20.5

Excerpt of the above (series 1):
Sequence | fitted relative affinity [z-score]
TTCATTATTGTTTCCTTCCTGTGCTAG | 2.64
AGGGCGGCTGAGTCAGCACAGTGCTAG | -1.26
GACGATATCGGGTATCGAGACGTGCTA | 0.0936
